Published values pooled from the literature.
A part holds a random share of what one study measured.

Block 1
Target: TAR DNA-binding protein 43, full length, His tag (TARDBP, Homo sapiens, UniProt Q13148, residues 1-414)
Technique: RNA Bind-n-Seq
Form: RNA
Sample: in vitro
Tested at: 20 nM
Notes: 6-mer, flanks averaged, single round
With: 150 mM LiCl
Relative to: input library
Direction: higher = stronger binding
Strand | 6-mer enrichment (R)
CCUCAA | 0.877
CCUGGA | 0.885
GUCUCG | 0.915
UAGCUA | 0.872
GGGACG | 1.15
ACUUGC | 0.89
UGGCUU | 0.99
UUCGCA | 0.852
CCUCUU | 1.02
GGCCGA | 0.975
AAUCGU | 0.896
UAAGCA | 0.86

Block 2
Target: Microphthalmia-associated transcription factor, full length (MITF, Homo sapiens, UniProt O75030-10, residues 1-413)
Technique: protein-binding microarray
Form: hairpin DNA
Sample: in vitro
Tested at: not given
Notes: whole hairpin DNA, median over replicate spots
Relative to: not given
Direction: higher = stronger binding
Strand | median fluorescence
GAGGCCTACGACGTGCTGCCTCCTGGCAGCACGTCGTAGGCCTCACACTC (5mC at 35) | 6590 a.u.
GAGGCCTAGAACGTGCTGCCTCCTGGCAGCACGTTCTAGGCCTCACACTC | 6690 a.u.
GAGGCCTCGCACGTGCTGCCTCCTGGCAGCACGTGCGAGGCCTCACACTC (5mC at 8) | 19700 a.u.
GAGGCCTCGCACGTGCTGCCTCCTGGCAGCACGTGCGAGGCCTCACACTC (5mC at 8 36) | 17600 a.u.

Block 3
Target: RNA binding protein fox-1 homolog 2, RRM domain, GST-SBP tag (RBFOX2, Homo sapiens, UniProt O43251-10, residues 100-194)
Technique: RNA Bind-n-Seq
Form: RNA
Sample: in vitro
Tested at: 365 nM
Notes: natural RNA segment, single round, ends assumed
Relative to: no-protein control
Direction: higher = stronger binding
Strand | RBNS enrichment (R)
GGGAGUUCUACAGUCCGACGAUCGGUGUGUUCUGUGAUAAUGAAAAGCAUCAGAAAAGCUUUUGUACUUUGUGGUUUCCUCUAUUUUGAAUUUUUUGAUCAAAAAACUGAUUAGCAGAAUAUAGUUUGGAGUUUGGAAUUCUCGGGUGCCAA | 0.868
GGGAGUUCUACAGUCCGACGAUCAUUUCUUACUCUUCUGUGUUUUAACAAAAGUUUAUAAAACAAAAUAAAUGGCGCAUAUGUUUUCUAAGUCCUUGGAUAAGUAUCUUUUCUUUCAGGUAUCAGAAAUAAGAUGGAAUUCUCGGGUGCCAA | 0.484
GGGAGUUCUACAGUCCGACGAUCCUUUGGAAAAGCAUCAAAGUAGAAAAGAAAUACAGUGCAAUUCUAUUAUGAGAAUGUUUUACAUUUAAACUGGUUUAGCACCUUUUAAGUUUAAAGCCCAUAGCUUCUUAUGGAAUUCUCGGGUGCCAA | 0.571
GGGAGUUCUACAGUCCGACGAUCAUCCCAGGUGCGGUUUCCCUUGCACUAGGCCGAACCUAUAGUAUAGAAAUAUUAUCUAUUUUAUUACCUUGAAUAUUUAAUAUUUUUCACUGGGAGGUUUGAAGCUUACAUGGAAUUCUCGGGUGCCAA | 0.417
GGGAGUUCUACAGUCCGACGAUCAUACAUAUUUUGAAAGAGGGGAAAUGUAGCAGAUAGUUCACAAGCUGCGGGUUGUAGCUAAAUAUUCCAUUUCUUUGAAAUCAUGUUUCUAAAUUCUUUACCAUCAGAAAUGGAAUUCUCGGGUGCCAA | 0.487
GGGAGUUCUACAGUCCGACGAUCAAGUUUUUAAUUUGAUGCCCAAUAUAUUCUGACCGUUAAAAAAUUCUUGUUCAUAUGGGAGAAGGGGGAGUAAUGACUUGUACAAACAGUAUUUCUGGUGUAUAUUUUAAUGGAAUUCUCGGGUGCCAA | 0.55
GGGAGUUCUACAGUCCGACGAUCGUGUGUGUUCAUUAUAGGUUAUUCAGCAAAGUGGACCCUGACAGUUUCUCGGUUUCCCCAGUGCUGAAGACAGCAUUGCCAUCCAAAGAAACUCACAUUUUCUUUAAAGCUGGAAUUCUCGGGUGCCAA | 0.625

Block 4
Target: Ras GTPase-activating protein-binding protein 1, RRM domain (G3BP1, Homo sapiens, UniProt Q13283)
Sequence of UniProt Q13283 (whole entry, looked up): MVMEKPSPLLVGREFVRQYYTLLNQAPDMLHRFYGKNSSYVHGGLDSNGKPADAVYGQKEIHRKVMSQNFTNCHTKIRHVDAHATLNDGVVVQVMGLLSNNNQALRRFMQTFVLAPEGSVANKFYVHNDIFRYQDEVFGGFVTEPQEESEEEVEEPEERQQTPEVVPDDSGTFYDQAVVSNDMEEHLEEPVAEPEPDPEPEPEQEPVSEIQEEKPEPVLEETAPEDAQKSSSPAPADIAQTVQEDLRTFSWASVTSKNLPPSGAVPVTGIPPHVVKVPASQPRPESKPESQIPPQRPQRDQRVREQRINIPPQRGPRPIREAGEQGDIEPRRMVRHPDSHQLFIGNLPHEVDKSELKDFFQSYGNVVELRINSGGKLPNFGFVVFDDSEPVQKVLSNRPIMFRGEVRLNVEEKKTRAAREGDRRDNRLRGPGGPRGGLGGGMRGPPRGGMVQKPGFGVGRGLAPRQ
Technique: RNA Bind-n-Seq
Form: RNA
Sample: in vitro
Tested at: 1 µM
Notes: whole 134-nt RNA, ends assumed
With: 150 mM KCl
Relative to: input library
Direction: higher = stronger binding
Strand | log2 enrichment
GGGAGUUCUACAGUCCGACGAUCAGUCCUGUGCUACACAUCGUAUGUACCGAAUCGGGCCCCGGGCCCCGGGGCCCCGGGAAAGUAUUAUGUUACGCCGUUCGGAUCUGCACUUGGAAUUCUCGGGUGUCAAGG | -0.666
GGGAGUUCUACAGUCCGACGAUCUCCUGUGCUACACAUCGUAUGUACCGAAUCGGGGUUUUUUGGUUUUUUGGGUUUUUUGGAAAGUAUUAUGUUACGCCGUUCGGAUCUGCAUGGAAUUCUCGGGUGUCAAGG | -0.0607
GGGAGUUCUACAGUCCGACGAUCCCUGUGCUACACAUCGUAUGUACCGAAUCGGGGAAAAAAGGAAAAAAGGGGAAAAAAGGGGAAAGUAUUAUGUUACGCCGUUCGGAUCUGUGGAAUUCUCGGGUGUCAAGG | -0.121
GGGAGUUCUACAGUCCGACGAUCUCAAGUCCUGUGCUACACAUCGUAUGUACCGAAUCGGUUGGGUUGGGGUUGGGGAAAGUAUUAUGUUACGCCGUUCGGAUCUGCACUUCCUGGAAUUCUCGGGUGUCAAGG | 0.195
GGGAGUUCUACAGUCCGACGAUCACCAUGCAGGUGGGCAUCUUUGGGACGUGGGGCAAGGGGGGGAUAGGGAGGGGGGUAACACUUUGGGAACAGGUGGUCCCAGGUCGUUUCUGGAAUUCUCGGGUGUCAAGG | -0.521
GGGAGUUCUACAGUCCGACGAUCACCAUGCAGGUGGGCAUCUUUGGGAAGUGGGGCAAGGGGGGGAUAGCGAGGGGGGUAACACUUUGGGAACAGGUGGUCCCAGGUCGUUUCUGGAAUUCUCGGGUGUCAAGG | 0.783
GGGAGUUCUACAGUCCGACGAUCUGGGAGGUGGAUUUUGUUUAUUUUUUUAGCUCAUUUCCAGGGGUGGGAAUUUUUGUUUAAUAUGUGUCAUGAAUAAAGUUGUUUUUGAAAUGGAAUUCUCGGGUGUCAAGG | 2.42
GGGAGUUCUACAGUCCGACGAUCGGCACCCUUUGAAGGGGAGGAUGAAGAUGAACUCUUCCAAUCCAUCAUGGAACACAACGUAGCCUAUCCCAAGUCUAUGUCCAAGGAAGCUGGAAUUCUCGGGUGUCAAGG | -0.211
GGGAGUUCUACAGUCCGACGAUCGAGAGCGAGGUGGCUUCAAUAAGCCUGGUGGUAAGUUUUUGAGUAUUACCAUAGAUAGUGUUUAAAAAAAAAUGCAGUCAGUUUUUAGAAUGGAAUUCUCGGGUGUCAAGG | -0.0529
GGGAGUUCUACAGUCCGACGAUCACCACUGCUACAGUCACCACCACCCAGGCCUCCUAUGCAGCUCAGUCUGCAUAUGGCACUCAGCCUGCUUAUCCAGCCUAUGGGCAGCAGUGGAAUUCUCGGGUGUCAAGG | -0.357

For quick reference, copied from above (block 4):
Strand | log2 enrichment
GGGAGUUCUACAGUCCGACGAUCGGCACCCUUUGAAGGGGAGGAUGAAGAUGAACUCUUCCAAUCCAUCAUGGAACACAACGUAGCCUAUCCCAAGUCUAUGUCCAAGGAAGCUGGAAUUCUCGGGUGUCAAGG | -0.211
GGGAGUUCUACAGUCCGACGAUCUGGGAGGUGGAUUUUGUUUAUUUUUUUAGCUCAUUUCCAGGGGUGGGAAUUUUUGUUUAAUAUGUGUCAUGAAUAAAGUUGUUUUUGAAAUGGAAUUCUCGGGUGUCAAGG | 2.42
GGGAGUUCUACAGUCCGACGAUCUCCUGUGCUACACAUCGUAUGUACCGAAUCGGGGUUUUUUGGUUUUUUGGGUUUUUUGGAAAGUAUUAUGUUACGCCGUUCGGAUCUGCAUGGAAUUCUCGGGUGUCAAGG | -0.0607
